# Measurements from different studies.
# Parts stem from different laboratories: compare values within a part only.

# Sample 1 — cell line: HEK-293T; observed: pseudovirus infection; organism: VSV pseudotyped with SARS-CoV-2 spike; concentration: 10 µM; time: 16 h; relative to: vehicle-treated
Compound,GFP-positive cells
CCCCCCC(=O)O[C@H]1CC[C@H]2[C@@H]3CCC4=CC(=O)CC[C@]4(C)[C@H]3CC[C@]12C,100%
CCCNS(=O)(=O)Nc1ncnc(OCCOc2ncc(Br)cn2)c1-c1ccc(Br)cc1,85%
CC(=O)O[C@H]1CC[C@@]2(C)C(=CC[C@@H]3[C@@H]2CC[C@]2(C)C(c4cccnc4)=CC[C@@H]32)C1,74.8%

# Sample 2 — method: RNA Bind-n-Seq; form: RNA; matrix: in vitro; concentration: 1 µM; setting: whole 134-nt RNA, ends assumed; with: 150 mM KCl; relative to: input library; direction: higher = stronger binding
# Target: Ras GTPase-activating protein-binding protein 1, RRM domain (G3BP1, Homo sapiens, UniProt Q13283)
# Sequence of UniProt Q13283 (whole entry, looked up): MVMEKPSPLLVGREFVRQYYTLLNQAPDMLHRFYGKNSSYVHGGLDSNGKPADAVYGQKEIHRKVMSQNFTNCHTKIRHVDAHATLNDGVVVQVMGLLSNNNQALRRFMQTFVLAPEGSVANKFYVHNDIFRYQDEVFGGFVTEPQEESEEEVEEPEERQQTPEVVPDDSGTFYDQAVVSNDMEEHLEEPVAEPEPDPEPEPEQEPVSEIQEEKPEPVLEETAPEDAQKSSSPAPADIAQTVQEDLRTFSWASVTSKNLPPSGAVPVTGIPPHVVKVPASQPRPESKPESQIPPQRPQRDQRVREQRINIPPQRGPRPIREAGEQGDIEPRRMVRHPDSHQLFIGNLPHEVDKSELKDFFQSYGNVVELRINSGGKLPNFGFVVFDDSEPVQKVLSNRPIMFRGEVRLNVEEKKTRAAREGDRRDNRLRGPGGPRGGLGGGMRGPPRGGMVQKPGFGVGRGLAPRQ
# All sequences stand within: GGGAGUUCUACAGUCCGACGAUC … UGGAAUUCUCGGGUGUCAAGG
Sequence,log2 enrichment
UCCUGUGCUACACAUCGUAUGUACCGAAUCGGGGUGGGGUUUUUGGGGAAAAAAAGGGGAAAGUAUUAUGUUACGCCGUUCGGAUCUGCA,0.772
CACAGACAACACGCACCCACACAGACACAGAGGCAAGGGGUUGGGAUGGGGACAGGGUGCACAGCAGGGCGGGGUAGGACCCCAGCCCCU,0.0482
CUGUGCUACACAUCGUAUGUACCGAAUCAAACCCCCCCAAACCCCCCCAAAUUUUUUUAAAAAAGUAUUAUGUUACGCCGUUCGGAUCUG,-0.598
CUUCUUGCAUGCUCGGCUCCGGACAGCUACGCUUCGGCAUGACGCAGACGGGCAGGCCACCCUGUUGAACCUCCUGCUGCGGAAUUACCU,-0.318
UUCACACCAAGCUGGGGAACAUCAAGACCUUAAACCUGGCAGGCAACCUCCUAGAGAGUCUGAGUGGCCUGCACAAGCUCUACUCACUGG,-0.268
GCAGGAAGUAAAAAUAAAUGGAAAUGCUUCGGAUAGUGGCAGGGGUGGGGGUUGCUAAGGAAAGGGUGGGAUGGGAGUGGGUAAAGAGUU,1.01

# Sample 3 — method: RNA Bind-n-Seq; form: RNA; matrix: in vitro; concentration: 365 nM; relative to: no-protein control; direction: higher = stronger binding
# Target: RNA binding protein fox-1 homolog 2, RRM domain, GST-SBP tag (RBFOX2, Homo sapiens, UniProt O43251-10, residues 100-194)
# Setting: natural RNA segment, single round, ends assumed
# All sequences stand within: GGGAGUUCUACAGUCCGACGAUC … UGGAAUUCUCGGGUGCCAA
# Target sequence (chain): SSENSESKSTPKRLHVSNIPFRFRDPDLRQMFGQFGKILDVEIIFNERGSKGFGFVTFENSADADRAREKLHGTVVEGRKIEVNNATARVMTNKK
Sequence,RBNS enrichment (R)
UGGCCUGGUGACCUCUAGGACCAAAGUCUUCCUGGAGCUGACCUCUAUGGUGUGGAGUGGUGGCAGAAGACUCUGAAAGGGAAGAAAUUGGCAAAGCUGCAGCUUUUUCC,0.969
UGAGGACUUACCUCCUGAAGAUAUGCUUGUUGCUUUAUGAUAUAUGUAAACUAUUCUUUAGAAAAAUGCAUUCACUCUUUAAUAAAAGUAUGUUUGUGUUAAUAAAGCCA,0.837
AGUUCUAAUUUGGGUUAAUAUUUUUAAAUGUAUUGUUUACUUUUGUAAUUAUAUACACAACAAAUAUUAGUGACUAGUUUUUGUAUUUGACAACUGUUUACCAUUGUGUU,0.475
CAAGAAAGAGCAAAUUUGUCCUGAACCUGAAUUUAUUUUUAUAAGAAAACCUGUUAUUACCUGUGUGCUUUUCACUUGGUUGUUCAUGAACUGCAGAGGGGGCUCCUUGA,0.417
CUUUAGGAGAAGUUAAGAGGUAUAUUCUUAAGGUGUAUUCUAUUUUGAUCUAAUUCUGUUUCUGGGGAGCAUCUUGUACUGUCACUGUUUUUGUACUAAAUCUUCAAAUA,0.872
GCUAAAUGCCAGGAGGAAAAAGGUUCUCGAAGAACAGCAGAGUUUUCCUGUAAAACCAGUCUCAUUUGGGCUUCUCAUCUGUGCUCACCUUGAACCUACAAACCUCCAUG,0.322
GGGGCACAUUUCUUAGAGGGCUUGCUGAGUGUGUAAAUAUAAUCGACUUUUGUUUGUGUUACAUGACUUCUGUGACUUCAUUGAAAAUCUGCACAAUUCAGUUUCAGCUC,0.406
AGCUCAGAGAAAGUUCCAUUUCCGUUCCAGAGGGAAGGGAACCUCCCUAGGUCCUUCCCUGGCUUGUUAUAACGCAAAGCUUGGUUGUUUAUGCAACUCUAUCUUAAGAA,0.437

# Sample 4 — action: inhibitor; concentration: 20 µM
# Target: Replicase polyprotein 1ab, nsp13 helicase (rep, Severe acute respiratory syndrome coronavirus 2, UniProt P0DTD1)
Structure (SMILES),inhibition
CC(C)(C)c1cc(C(=O)/C=C/c2ccc(C(=O)O)cc2)cc(C(C)(C)C)c1,25.7%
O=C(O)[C@H](Cc1ccc(Nc2nccc3ccncc23)cc1)NC1=C(Br)C(=O)C12CCCCC2,3.32%
NCC(=O)Nc1ccc(-n2nc(C(F)(F)F)cc2-c2ccc3c(ccc4ccccc43)c2)cc1,5.17%
Cc1cc(/C=c2/sc3nc4ccccc4n3c2=O)c(C)n1-c1ccccc1,7.65%
CCc1c(C)[nH]c2c1C(=O)C(CN1CCOCC1)CC2 (centres unmarked),0.77%
Cc1ccc2[nH]c(=O)c(C3=NN(C(=O)CCC(=O)O)C(c4ccc(Br)cc4)C3)c(-c3ccccc3)c2c1 (centres unmarked),3.07%
CC(=O)[C@@]1(O)CC[C@H]2[C@@H]3CCC4=CC(=O)CC[C@]4(C)[C@H]3CC[C@@]21C,3.12%
CCNCCCNCCCCNCCCNCC,-2.53%
CC(=O)OCC(=O)[C@@]1(O)CC[C@H]2[C@@H]3CCC4=CC(=O)CC[C@]4(C)[C@H]3[C@@H](O)C[C@@]21C,2.13%
Cc1ccc(O)c([C@H](CCN(C(C)C)C(C)C)c2ccccc2)c1,-0.17%
O=C(O)c1ccc(CN2CCC(CN[C@@H]3C[C@H]3c3ccccc3)CC2)cc1,6.6%
C#Cc1cccc(Nc2ncnc3cc(OCCOC)c(OCCO)cc23)c1,2.1%
CC(=O)OCC(=O)[C@@]12OC3(CCCC3)O[C@@H]1C[C@H]1[C@@H]3CCC4=CC(=O)C=C[C@]4(C)[C@@]3(F)[C@@H](O)C[C@@]12C,3.34%
C[C@@]1(c2cc(-c3cncnc3)c(F)cc2F)CCSC(N)=N1,-3.78%
CS(=O)(=O)c1ccc(-c2cn3ccccc3n2)cc1,2.63%
CC(C)[C@H](O)C(=O)N[C@@H](C)C(=O)N[C@@H]1C(=O)N(C)CCc2ccccc21,-0.41%
C[C@@H]1CCCN1CCc1cc2cc(-c3ccc(C#N)cc3)ccc2o1,4.57%
CC(=O)N(C)c1cccc(-c2ccnc3c(C(=O)c4cccs4)cnn23)c1,-1.37%
c1cncc(CN2CCC(n3ncc4c(N5CCOCC5)nc(-c5ccc6[nH]ccc6c5)nc43)CC2)c1,-0.09%
COc1ccccc1N1CCN(CCN(C(=O)C2CCCCC2)c2ccccn2)CC1,-1.92%
COc1cc2c(cc1OC)[C@@H](Cc1cc(OC)c(OC)c(OC)c1)[N+](C)(CCCOC(=O)CC/C=C/CCC(=O)OCCC[N+]1(C)CCc3cc(OC)c(OC)cc3[C@H]1Cc1cc(OC)c(OC)c(OC)c1)CC2 (some centres unmarked),4.91%
CCCN1CCO[C@@H]2c3cc(O)ccc3OC[C@H]21,3.7%
CN[C@H](C(=O)N[C@H](C(=O)N(C)[C@H](/C=C(\C)C(=O)O)C(C)C)C(C)(C)C)C(C)(C)c1ccccc1,6.77%
O[C@@H](c1cc(C(F)(F)F)nc2c(C(F)(F)F)cccc12)[C@H]1CCCCN1,24.8%
N=C(N)NN,5.81%

# Sample 5 — method: universal PBM; form: double-stranded DNA, one strand shown; matrix: in vitro; concentration: 600 nM; direction: higher = stronger binding
# Target: Sal-like protein 4, full length isoform A (SALL4, Homo sapiens, UniProt Q9UJQ4, residues 1-1053)
# Sequence of UniProt Q9UJQ4 (whole entry, looked up): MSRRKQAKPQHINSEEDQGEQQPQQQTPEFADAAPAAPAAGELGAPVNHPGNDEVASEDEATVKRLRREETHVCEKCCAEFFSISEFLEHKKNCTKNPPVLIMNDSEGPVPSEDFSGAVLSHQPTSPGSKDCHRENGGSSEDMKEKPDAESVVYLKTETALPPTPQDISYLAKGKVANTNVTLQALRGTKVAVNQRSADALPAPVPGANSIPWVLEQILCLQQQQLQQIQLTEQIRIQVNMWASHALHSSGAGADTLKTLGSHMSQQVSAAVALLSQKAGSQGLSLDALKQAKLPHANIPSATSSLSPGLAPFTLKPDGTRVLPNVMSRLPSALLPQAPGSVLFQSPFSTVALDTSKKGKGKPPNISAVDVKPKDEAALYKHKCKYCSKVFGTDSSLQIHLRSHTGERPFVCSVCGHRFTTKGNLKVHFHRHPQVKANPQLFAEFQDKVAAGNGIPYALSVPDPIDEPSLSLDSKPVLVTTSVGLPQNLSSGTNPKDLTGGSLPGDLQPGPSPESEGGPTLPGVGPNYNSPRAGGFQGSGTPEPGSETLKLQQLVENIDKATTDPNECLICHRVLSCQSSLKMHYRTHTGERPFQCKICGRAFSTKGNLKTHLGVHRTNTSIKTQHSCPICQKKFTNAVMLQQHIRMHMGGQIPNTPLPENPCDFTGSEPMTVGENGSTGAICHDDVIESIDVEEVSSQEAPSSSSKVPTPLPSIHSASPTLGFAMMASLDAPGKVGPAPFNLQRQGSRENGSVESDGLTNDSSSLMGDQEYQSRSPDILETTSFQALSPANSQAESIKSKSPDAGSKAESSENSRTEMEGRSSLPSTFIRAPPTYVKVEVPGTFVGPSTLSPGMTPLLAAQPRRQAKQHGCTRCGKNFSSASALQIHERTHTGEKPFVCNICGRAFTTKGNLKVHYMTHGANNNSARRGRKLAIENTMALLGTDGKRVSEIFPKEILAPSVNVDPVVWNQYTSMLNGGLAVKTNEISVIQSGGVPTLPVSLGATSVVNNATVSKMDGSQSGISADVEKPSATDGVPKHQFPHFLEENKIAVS
# Setting: 8-mer, flanks averaged, mean of replicates
Sequence,E-score
CTAAAAAG,0.194
GAAATCCC,-0.116
ACGCATTA,0.192
AGATGACT,0.0295
GGATGCCA,-0.225
CACTGACG,-0.212
ATAACCCA,0.212
ATAATAGG,0.317

# Mixed results
Compound,tested on,assay,system,conditions,quantity,result
N#CSc1cc(SC#N)c(N)nc1N,SARS-CoV-2,viral RNA,Vero E6,,EC50,~6.6 µM
O=C(c1cccs1)c1no[n+]([O-])c1C(=O)c1cccs1,SARS-CoV-2,cytopathic effect,Vero E6,"10 µM, 96 h",inhibition,-47.4%
Cc1ccc(C)c(-n2sc3cc(F)ccc3c2=O)c1,"Replicase polyprotein 1ab, main protease (rep, Severe acute respiratory syndrome coronavirus 2, UniProt P0DTD1)","enzyme activity, inhibitor",SARS-CoV-2,with: DTT,IC50,0.01 µM
